Measured values gathered from unrelated publications.
Lines come from different studies, so protocols differ. ± gives the spread as reported.
Cell line: HeLa

CCCN1C(=O)/C(=C/C(=O)OCC)S/C1=N\N=C\c1cccc2cc3ccccc3nc12  IC50 (cell growth or viability, MTT; 48 h): 33.3 µM
COc1ccc(COC[C@](O)(CNCc2ccccc2)[C@@H]2CC[C@@H](C)C[C@H]2OCc2ccc(OC)cc2)cc1  IC50 (cell growth or viability, MTT; 72 h): 3.09 µM
O=C(NCCOCCNC(=O)c1cc2ccccc2c2ccccc12)c1cc(C(=O)N2CCNCCNCCNCC2)c(O)c(C(=O)N2CCNCCNCCNCC2)c1  IC50 (cell growth or viability, MTT; 24 h): > 1000 µM
C[C@@H]1CC[C@@H]([C@@](O)(CNCc2ccc(F)cc2)COCc2ccc(F)cc2)[C@H](OCc2ccc(F)cc2)C1  IC50 (cell growth or viability, MTT; 72 h): 2.72 µM
COc1ccc(C2CC(=O)c3c(cc(O)c(CC=C(C)C)c3O)O2)cc1 (stereo not drawn)  IC50 (cell growth or viability, MTT; 48 h): > 100 µM
CCOC(=O)/C=C1\S/C(=N\N=C\c2cccc3cc4ccccc4nc23)N(c2cccc(OC)c2)C1=O  IC50 (cell growth or viability, MTT; 48 h): 16.1 µM
O=C1O[C@H]([C@@H](O)CO)C(O)=C1O[C@H]1O[C@H](CO)[C@@H](O)[C@H](O)[C@H]1O  IC50 (cell growth or viability): > 10 µM
O=[C]=[Mn-2]12(=[C]=O)(=[C]=O)[O]c3cc4c(cc3=[N+]1CCc1ccccc1)[O][Mn-2](=[C]=O)(=[C]=O)(=[C]=O)([N+]=4CCc1ccccc1)[n+]1ccc(cc1)C(=O)Nc1ccccc1NC(=O)c1cc[n+]2cc1  IC50 (cell growth, MTT; 48 h, LED photolysed 1 h): 2.51 ± 0.36 µM
Cc1c(COc2cc(OCc3cccc(C#N)c3)c(CNC(C)(CO)CO)cc2Cl)cccc1-c1cccc(OCCCCCCC(=O)NO)c1  IC50 (cell growth or viability, CCK-8; 48 h): > 20 µM
CC(NC(=O)c1ccccc1)C(CCCCCCCCCCCCCCC(=O)CCCCCCCC(OC(=O)c1ccccc1)C(C)NC(=O)c1ccccc1)OC(=O)c1ccccc1 (stereo not drawn)  IC50 (cell growth or viability): > 50 µM
CC(CCC(=O)[O][Pt]([NH2])([NH2])([OH])([Cl])[Cl])C1CCC2C3CCC4CC(O)CCC4(C)C3CCC12C (stereo not drawn)  IC50 (cell growth or viability, MTT; 72 h): 7.3 µM
O=C(O)C(CO)NCc1cc(Cl)c(OCc2cccc(-c3ccccc3)c2Br)cc1OCc1cccnc1 (stereo not drawn)  IC50 (cell growth or viability, MTT): > 10 µM
NCCCn1cc(COc2cc(C(=O)Nc3cc(OCCN)c4ccccc4n3)nc(C(=O)Nc3cc(OCCN)c4ccccc4n3)c2)nn1  IC50 (cell growth or viability, ATP luminescence; 72 h): > 40 µM
CCC(=CCc1c(O)cc2c(c1O)C(=O)CC(c1cc(OC)ccc1O)O2)CC (stereo not drawn)  IC50 (cell growth or viability, MTT; 48 h): > 100 µM
Cc1ccc(-c2ccc(C)cn2)nc1  IC50 (cell growth or viability, MTT; 48 h): > 50 µM
CN1C(=O)CS/C1=N\N=C\c1cccc2cc3ccccc3nc12  IC50 (cell growth or viability, MTT; 48 h): 12.3 µM
Cc1ccc2c(Br)cc(Br)c([O-])c2n1.Cc1ccc2c(Br)cc(Br)c([O-])c2n1.[Co+2].c1cnc2c(c1)ccc1cccnc12  IC50 (cell growth or viability, MTT; 48 h): 6.17 µM
NCC1OC(OC2C(N)CC(N)C(OC3OC(CO)C(O)C(N)C3O)C2O)C(N)C(O)C1O (stereo not drawn)  IC50 (cell growth or viability): > 10 µM
